{"data": "Experimental data collected from several papers", "note": "Compare with care: the assays were run in different laboratories. “And” joins repeats or separate records; there may be more than shown. Numbers after ± are the reported error.", "sequence of UniProt Q9UM73 (whole entry, unmodified, looked up)": "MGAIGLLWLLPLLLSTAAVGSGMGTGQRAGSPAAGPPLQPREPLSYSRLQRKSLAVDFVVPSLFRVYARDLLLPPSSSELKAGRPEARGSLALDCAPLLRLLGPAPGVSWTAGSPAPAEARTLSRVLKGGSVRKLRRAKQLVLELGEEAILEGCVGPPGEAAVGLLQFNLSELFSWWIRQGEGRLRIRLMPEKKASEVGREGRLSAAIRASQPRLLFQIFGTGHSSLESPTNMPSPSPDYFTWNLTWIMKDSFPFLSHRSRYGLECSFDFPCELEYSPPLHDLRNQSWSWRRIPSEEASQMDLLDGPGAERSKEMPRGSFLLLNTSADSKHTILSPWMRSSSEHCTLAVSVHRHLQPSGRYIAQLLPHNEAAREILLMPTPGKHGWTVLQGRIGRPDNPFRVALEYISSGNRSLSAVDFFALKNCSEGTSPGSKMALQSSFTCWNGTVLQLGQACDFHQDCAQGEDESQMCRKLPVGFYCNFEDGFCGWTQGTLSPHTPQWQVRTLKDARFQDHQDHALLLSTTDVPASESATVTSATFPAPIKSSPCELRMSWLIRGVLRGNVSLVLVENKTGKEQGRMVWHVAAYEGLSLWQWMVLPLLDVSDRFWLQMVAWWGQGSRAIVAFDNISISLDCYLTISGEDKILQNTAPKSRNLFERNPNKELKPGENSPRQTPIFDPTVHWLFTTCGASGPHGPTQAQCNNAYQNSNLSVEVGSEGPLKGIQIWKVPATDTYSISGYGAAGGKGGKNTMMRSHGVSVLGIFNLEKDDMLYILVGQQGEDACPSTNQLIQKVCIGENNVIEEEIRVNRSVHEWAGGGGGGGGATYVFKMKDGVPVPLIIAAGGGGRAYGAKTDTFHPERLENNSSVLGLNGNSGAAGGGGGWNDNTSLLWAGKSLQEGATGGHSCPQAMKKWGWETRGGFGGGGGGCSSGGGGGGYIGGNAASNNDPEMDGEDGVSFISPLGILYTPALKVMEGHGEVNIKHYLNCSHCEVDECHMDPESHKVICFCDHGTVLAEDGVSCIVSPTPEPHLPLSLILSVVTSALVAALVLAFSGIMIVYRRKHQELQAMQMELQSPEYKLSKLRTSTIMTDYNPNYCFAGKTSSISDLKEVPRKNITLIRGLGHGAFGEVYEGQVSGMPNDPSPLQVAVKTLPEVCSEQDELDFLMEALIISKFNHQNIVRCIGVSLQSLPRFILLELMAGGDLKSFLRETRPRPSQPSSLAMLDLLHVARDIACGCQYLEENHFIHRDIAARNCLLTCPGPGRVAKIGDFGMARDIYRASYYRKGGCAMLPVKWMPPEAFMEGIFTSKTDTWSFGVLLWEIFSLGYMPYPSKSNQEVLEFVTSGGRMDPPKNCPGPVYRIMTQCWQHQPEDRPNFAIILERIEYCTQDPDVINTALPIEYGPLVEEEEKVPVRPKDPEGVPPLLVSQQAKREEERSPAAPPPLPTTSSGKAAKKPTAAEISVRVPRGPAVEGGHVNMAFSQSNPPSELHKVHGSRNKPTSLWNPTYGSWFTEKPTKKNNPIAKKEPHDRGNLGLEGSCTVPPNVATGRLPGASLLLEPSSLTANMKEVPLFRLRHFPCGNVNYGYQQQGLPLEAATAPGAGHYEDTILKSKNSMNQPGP", "sequence of UniProt Q9C0K7 (whole entry, looked up)": "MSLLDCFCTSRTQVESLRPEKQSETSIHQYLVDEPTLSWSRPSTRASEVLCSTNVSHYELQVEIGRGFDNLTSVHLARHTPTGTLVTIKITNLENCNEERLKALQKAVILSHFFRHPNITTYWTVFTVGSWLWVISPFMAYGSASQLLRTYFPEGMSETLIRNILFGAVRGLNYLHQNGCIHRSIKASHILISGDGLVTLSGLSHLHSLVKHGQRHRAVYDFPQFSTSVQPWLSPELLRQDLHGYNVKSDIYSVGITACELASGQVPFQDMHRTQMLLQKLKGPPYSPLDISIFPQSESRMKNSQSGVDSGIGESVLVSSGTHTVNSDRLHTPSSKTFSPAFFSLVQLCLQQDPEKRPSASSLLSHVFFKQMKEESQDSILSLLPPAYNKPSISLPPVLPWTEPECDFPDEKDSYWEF", "sequence of UniProt Q9UQM7 (whole entry, looked up)": "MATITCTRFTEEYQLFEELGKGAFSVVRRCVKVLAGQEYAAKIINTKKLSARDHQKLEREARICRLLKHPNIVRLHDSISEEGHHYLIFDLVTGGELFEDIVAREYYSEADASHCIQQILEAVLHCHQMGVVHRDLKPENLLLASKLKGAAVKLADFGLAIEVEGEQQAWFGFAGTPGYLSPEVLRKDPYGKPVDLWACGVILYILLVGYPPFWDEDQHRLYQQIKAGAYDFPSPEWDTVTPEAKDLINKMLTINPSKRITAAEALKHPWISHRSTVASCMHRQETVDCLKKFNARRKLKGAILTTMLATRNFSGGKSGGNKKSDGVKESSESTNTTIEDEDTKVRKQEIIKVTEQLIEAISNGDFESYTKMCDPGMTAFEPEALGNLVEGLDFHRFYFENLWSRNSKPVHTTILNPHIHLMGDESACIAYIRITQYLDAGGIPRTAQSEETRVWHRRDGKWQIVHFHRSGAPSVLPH", "sequence of UniProt Q9UL54 (whole entry, looked up)": "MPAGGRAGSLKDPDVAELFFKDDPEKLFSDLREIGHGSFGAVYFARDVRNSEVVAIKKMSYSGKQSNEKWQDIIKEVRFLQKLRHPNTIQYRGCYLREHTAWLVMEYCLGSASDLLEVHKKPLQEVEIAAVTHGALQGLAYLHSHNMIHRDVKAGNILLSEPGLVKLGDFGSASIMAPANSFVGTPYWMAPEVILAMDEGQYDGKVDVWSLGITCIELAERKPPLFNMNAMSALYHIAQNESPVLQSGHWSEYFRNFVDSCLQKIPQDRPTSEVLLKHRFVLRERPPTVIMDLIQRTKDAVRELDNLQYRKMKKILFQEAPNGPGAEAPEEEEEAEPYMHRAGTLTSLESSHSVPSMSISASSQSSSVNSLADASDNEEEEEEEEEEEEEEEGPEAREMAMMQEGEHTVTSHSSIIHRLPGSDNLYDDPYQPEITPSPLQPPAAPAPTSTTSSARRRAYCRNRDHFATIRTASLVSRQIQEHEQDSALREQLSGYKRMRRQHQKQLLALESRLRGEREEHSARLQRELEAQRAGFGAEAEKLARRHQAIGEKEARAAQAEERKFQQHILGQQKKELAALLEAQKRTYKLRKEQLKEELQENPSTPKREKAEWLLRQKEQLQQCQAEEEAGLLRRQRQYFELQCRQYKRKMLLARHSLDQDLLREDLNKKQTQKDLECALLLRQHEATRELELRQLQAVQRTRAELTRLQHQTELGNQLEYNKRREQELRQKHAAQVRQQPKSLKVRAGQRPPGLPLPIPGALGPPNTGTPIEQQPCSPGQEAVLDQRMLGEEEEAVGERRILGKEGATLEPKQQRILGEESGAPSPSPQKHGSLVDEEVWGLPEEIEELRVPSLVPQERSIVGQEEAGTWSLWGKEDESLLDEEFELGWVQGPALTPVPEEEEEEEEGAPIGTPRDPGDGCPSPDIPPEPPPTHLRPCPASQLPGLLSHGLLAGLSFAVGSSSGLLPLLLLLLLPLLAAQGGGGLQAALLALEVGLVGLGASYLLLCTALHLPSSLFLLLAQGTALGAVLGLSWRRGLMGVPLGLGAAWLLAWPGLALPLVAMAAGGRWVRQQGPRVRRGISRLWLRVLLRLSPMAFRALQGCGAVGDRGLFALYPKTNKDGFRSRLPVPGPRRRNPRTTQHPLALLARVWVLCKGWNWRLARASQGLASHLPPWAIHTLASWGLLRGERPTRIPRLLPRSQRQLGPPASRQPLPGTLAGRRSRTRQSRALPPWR"}
{"SMILES": "O=C1NC2(CC2)COc2ncc(F)cc2[C@H]2COCCN2c2ccn3ncc1c3n2", "test system": "Sprague-Dawley rat, female, serum", "conditions": "oral, 5 mg/kg/day, 4 weeks daily, end of treatment", "measurement": "aspartate aminotransferase activity", "result": "108 ± 18.3 U/L"}
{"SMILES": "CN(C)[C@H]1C[C@@]23CC[C@@]4(O2)C(=CC[C@]2(C)[C@@H](c5ccc6ccncc6c5)CC[C@H]24)C=C3[C@@H](O)[C@@H]1O", "tested on": "STE20-related kinase adapter protein beta (Homo sapiens, UniProt Q9C0K7)", "assay": "ATP probe labelling, inhibitor, KiNativ profiling", "conditions": "1 µM", "measurement": "inhibition", "result": "6.8%"}
{"SMILES": "CN1CC[C@]23c4c5ccc(O)c4O[C@H]2[C@H](O)CC[C@@]3(O)[C@H]1C5", "conditions": "phenolate site", "measurement": "log k protonation constant", "result": 9.29}
{"SMILES": "Cc1nc2cccc(OCC(C)(C)C(=O)NC(C)C)c2c(N)c1C(=O)[O-].[Na+]", "tested on": "Salmonella typhimurium", "test system": "TA1537", "conditions": "0.80 mg per plate, with S9, preincubation", "measurement": "revertant colonies per plate", "result": "15 ± 1"}
{"SMILES": "CN1Cc2cc(Cl)ccc2-n2c(nnc2C2CCN(c3cccc([18F])n3)CC2)C1", "test system": "C57BL/6 mouse male, spleen", "conditions": "intravenous, 3.7 MBq, 15 min", "measurement": "tissue uptake", "result": "4.22 ± 1.08 %ID/g"}
{"SMILES": "COc1ccc2c3c1O[C@H]1[C@@H](O)C=C[C@H]4[C@@H](C2)N(CCc2ccccc2)CC[C@@]341", "assay": "potentiometric titration", "test system": "methanol/water, extrapolated to water", "measurement": "log K", "result": 8.04}
{"SMILES": "NC[C@]1(CC(=O)O)CC[C@@H]([18F])CC1", "assay": "PET", "test system": "rhesus monkey, brain", "conditions": "intravenous, 13 min, baseline scan, after decrease", "measurement": "SUV", "result": 0.25}
{"SMILES": "Cc1ccc(NS(=O)(=O)c2c(C(=O)N3CCCCCC3)c(C)n(C)c2C)c(Cl)c1", "tested on": "CV-1", "test system": "African green monkey cells", "conditions": "0.046 µM, 60 (unit not given)", "measurement": "viability", "result": "97.4% and 91.9%"}
{"SMILES": "CC[C@H](C)[C@H](NC(=O)[C@H](CCCCN)NC(=O)CNC(=O)[C@H](CC(C)C)NC(=O)[C@H](Cc1ccccc1)NC(=O)[C@H](CCCCN)NC(=O)[C@H](CO)NC(=O)[C@H](Cc1ccccc1)NC(=O)[C@H](Cc1c[nH]c2ccccc12)NC(=O)[C@H](CCC(N)=O)NC(=O)[C@@H](NC(=O)[C@H](Cc1ccccc1)NC(=O)CCCCCNC(=O)CN1CCN(CC(=O)O)CCN(CC(=O)O)CCN(CC(=O)O)CC1)C(C)C)C(=O)N[C@@H](CCC(=O)O)C(=O)N1CCC[C@H]1C(=O)N[C@@H](CC(=O)O)C(=O)N[C@H](C(=O)N[C@@H](CO)C(=O)N[C@@H](CCC(N)=O)C(=O)N[C@H](C(=O)N[C@@H](CCC(N)=O)C(=O)N[C@@H](CC(=O)O)C(=O)N1CCC[C@H]1C(=O)N[C@@H](CC(N)=O)C(=O)N[C@@H](CC(=O)O)C(=O)N[C@@H](CCC(N)=O)C(=O)N[C@@H](Cc1ccc(O)cc1)C(=O)N[C@@H](CCC(=O)O)C(=O)N1CCC[C@H]1C(=O)N[C@@H](Cc1ccccc1)C(=O)O)C(C)C)C(C)C [copper-64 labelled]", "test system": "GZMB-/- mice, CT26 tumour-bearing, blood", "conditions": "2 h, checkpoint inhibitor-treated", "measurement": "tissue uptake", "result": "0.92 ± 0.1 %ID/g"}
{"SMILES": "CC[C@H](C)[C@H](NC(=O)[C@H](CC(C)C)NC(=O)[C@H](CCCNC(=N)N)NC(=O)CNC(=O)CNC(=O)[C@H](CCCCN)NC(=O)[C@H](CCCNC(=N)N)NC(=O)[C@H](CC(C)C)NC(=O)[C@H](CC(C)C)NC(=O)[C@H](CCCNC(=N)N)NC(=O)[C@@H](NC(=O)[C@H](CC(C)C)NC(=O)[C@@H](N)CO)[C@@H](C)O)C(=O)NCC(=O)N[C@@H](Cc1c[nH]c2ccccc12)C(=O)N[C@@H](CCCNC(=N)N)C(=O)N[C@@H](Cc1c[nH]c2ccccc12)C(=O)N[C@@H](CCC(=O)O)C(=O)N[C@@H](CCCCN)C(=O)N[C@H](C(=O)N[C@@H](CCCNC(=N)N)C(=O)N[C@@H](CC(N)=O)C(=O)N[C@@H](Cc1c[nH]c2ccccc12)C(=O)N[C@H](C(=O)N[C@@H](CCCNC(=N)N)C(=O)N[C@@H](CCCNC(=N)N)C(=O)N[C@H](C(=O)N[C@H](C(=O)N[C@@H](CCC(=O)O)C(=O)N[C@@H](CCCCN)C(=O)N[C@@H](CCCNC(=N)N)C(=O)N[C@@H](CCCCN)C(=O)N1CCC[C@H]1C(=O)N[C@@H](CC(N)=O)C(=O)N[C@@H](CCCCN)C(=O)O)[C@@H](C)CC)[C@@H](C)CC)[C@@H](C)CC)[C@@H](C)O", "tested on": "rat erythrocytes", "assay": "haemolysis", "conditions": "1 h, 37 °C, 2% erythrocytes in PBS", "measurement": "HC50", "result": "2.84 log10 µg/mL"}
{"SMILES": "O=C1CC[C@H]2[C@H]3Cc4ccc(O)c5c4[C@@]2(CCN3CCc2ccccc2)[C@H]1O5", "conditions": "phenolate protonated", "measurement": "log k amino protonation", "result": 9.47}
{"SMILES": "C[C@H]1[C@@H](OCc2cn(-c3cc4ccc(O)cc4oc3=O)nn2)O[C@@H]2O[C@@]3(C)CC[C@H]4[C@H](C)CC[C@@H]1[C@@]24OO3", "tested on": "Plasmodium berghei", "assay": "flow cytometry", "test system": "infected mouse blood", "conditions": "3 µM, 1 h", "measurement": "uptake into parasites", "result": "28.2 ± 2 % stained cells"}
{"SMILES": "CN1CC[C@]23c4c5ccc(O)c4O[C@H]2[C@H](O)C=C[C@@]3(O)[C@H]1C5", "measurement": "log tautomerization constant", "result": 0.33}
{"SMILES": "CC[C@H](C)[C@H](NC(=O)[C@H](CO)NC(=O)[C@H](Cc1ccc(O)cc1)NC(=O)[C@H](Cc1ccc(O)cc1)NC(=O)[C@H](CC(N)=O)NC(=O)CNC(=O)[C@H](CO)NC(=O)[C@H](Cc1ccc(O)cc1)NC(=O)[C@H](CO)NC(=O)[C@H](CO)NC(=O)[C@H](CC(N)=O)NC(=O)COCCOCCNC(=O)CN1CCN(CC(=O)O)CCN(CC(=O)O)CCN(CC(=O)O)CC1)C(=O)N[C@@H](CC(C)C)C(N)=O [copper-64 labelled]", "assay": "dynamic PET", "test system": "KPC mouse, pancreatic cancer model, tumor", "conditions": "intravenous, 0.6 min, 49 days after tamoxifen", "measurement": "tumour uptake", "result": "12.7 %ID/mL"}
{"SMILES": "COc1ccc(-n2cc(C(=O)N3C[C@]4(OC(=O)c5ccccc5NC(C)=O)CC[C@H](OC)[C@@]56[C@@H]4C[C@@H]([C@@H]35)[C@@]3(O)C[C@H](OC)[C@H]4C[C@@H]6[C@]3(O)[C@H]4OC)nn2)cc1", "test system": "Sprague-Dawley rat, plasma", "conditions": "intravenous, 2 mg/kg, 30 min", "measurement": "concentration", "result": "25.2 ng/mL"}
{"SMILES": "C[C@@H](c1ccc2nccn2c1)n1nnc2ncc(-c3cn[nH]c3)nc21", "tested on": "savolitinib", "test system": "human, plasma", "conditions": "600 mg QD rifampicin, geometric LS mean, with: savolitinib 600 mg", "measurement": "Cmax", "result": "482 ng·mL"}
{"SMILES": "O=C1NC(=O)c2c1c1cc(F)c[n+]3c1c1c2c2cc(O)ccc2[n]1[Ru-4]312([N]=C=S)[S+]3CC[S+]1CC[S+]2CC3 (centres unmarked)", "tested on": "TAOK2 (Homo sapiens, UniProt Q9UL54)", "assay": "enzyme activity", "conditions": "100 nM, human enzyme, with: 10 µM ATP", "how to read": "baseline: untreated", "measurement": "remaining activity", "result": "93%"}
{"SMILES": "Cc1sc2c(c1C)C(c1ccc(Cl)cc1)=N[C@@H](CC(=O)OC(C)(C)C)c1nnc(C)n1-2", "test system": "CD1 mouse, male, plasma", "conditions": "oral, 10 mg/kg", "measurement": "AUC(0-inf)", "result": "2090 ng·h/mL"}
{"SMILES": "CC(=O)NCCCC[C@@H]1NC(=O)[C@H](Cc2c[nH]c3c(C)cccc23)NC(=O)[C@H]([C@@H](C)O)NC(=O)[C@H](CC(N)=O)NC(=O)[C@@H](NC(C)=O)C(C)(C)SSC(C)(C)[C@@H](C(=O)N[C@@H](Cc2ccc(OCCN)cc2)C(=O)N[C@@H](Cc2ccc3ccccc3c2)C(=O)NC2(C(=O)N[C@@H](CCC(=O)O)C(=O)N[C@@H](CC(N)=O)C(=O)N[C@@H](Cc3cccnc3)C(=O)N(C)CC(N)=O)CCOCC2)NC1=O", "tested on": "human alpha-1-acid glycoprotein 0.07%", "assay": "equilibrium dialysis", "conditions": "0.01 µM", "measurement": "protein binding", "result": "6.68 ± 0.58%"}
{"SMILES": "COc1ccccc1-c1n[nH]c2nc(NC3CCN(C(=O)Cc4ccc(F)cc4F)CC3)ncc12", "assay": "bead binding, competition bead pull-down, item: LINJ.23.0410", "test system": "Leishmania donovani extract", "conditions": "10 µM", "how to read": "baseline: vehicle", "measurement": "relative abundance", "result": 0.97}
{"SMILES": "CC(C)(C)C(=O)OCOP(=O)(OCOC(=O)C(C)(C)C)C1CCCN(O)C1=O (centres unmarked)", "tested on": "SF-295", "measurement": "log TGI", "result": "> -4 log M"}
{"SMILES": "Cc1cc(-c2ccc3ccccc3c2)nnc1NCCN1CCN(C)CC1", "tested on": "SLC22A1 (Homo sapiens, UniProt O15245)", "assay": "transporter uptake, inhibitor", "conditions": "10 µM", "measurement": "inhibition", "result": "23%"}
{"SMILES": "CC(=O)c1cccc(-c2nc(Nc3ccccc3)nc(N3CCOCC3)n2)c1", "tested on": "Cytochrome P450 1A2 (CYP1A2, Homo sapiens, UniProt P05177)", "conditions": "10 µM", "measurement": "inhibition", "result": "88%"}
{"SMILES": "Oc1ccc2c3c1OC1C(O)C=CC4C(C2)N(CC2CCC2)CCC341 (centres unmarked)", "measurement": "log tautomerization constant", "result": 0.06}
{"SMILES": "CC[C@H](C)[C@H](NC(=O)[C@H](CCCCN)NC(=O)[C@H](CCCCN)NC(=O)[C@H](Cc1ccccc1)NC(=O)[C@H](Cc1ccccc1)NC(=O)[C@H](CCCCN)NC(=O)[C@H](CCCCN)NC(=O)[C@H](Cc1ccccc1)NC(=O)[C@H](CCCNC(=N)N)NC(=O)[C@@H](N)CCCCN)C(=O)N[C@@H](CCCCN)C(=O)N[C@@H](CCCCN)C(=O)N[C@@H](CO)C(=O)N[C@H](C(=O)N[C@@H](CCCCN)C(=O)N[C@@H](CCCCN)C(=O)N[C@@H](CCCNC(=N)N)C(=O)N[C@H](C(=O)N[C@@H](CCCCN)C(=O)N[C@@H](CCCCN)C(=O)N[C@@H](CC(C)C)C(=O)N[C@@H](Cc1ccccc1)C(=O)N[C@@H](CCCCN)C(=O)N[C@@H](CCCCN)C(=O)N1CCC[C@H]1C(=O)N[C@@H](CCCNC(=N)N)C(=O)N[C@H](C(=O)N[C@H](C(=O)N1CCC[C@H]1C(=O)N[C@H](C(=O)N[C@@H](CO)C(=O)N[C@H](C(=O)N1CCC[C@H]1C(=O)N[C@@H](Cc1ccccc1)C(=O)O)[C@@H](C)CC)[C@@H](C)CC)[C@@H](C)CC)C(C)C)C(C)C)C(C)C", "tested on": "Pseudomonas aeruginosa", "test system": "P1, mouse serum", "conditions": "1 h, 37 °C", "measurement": "MIC", "result": "16 µg/mL"}
{"SMILES": "COc1ccc2c3c1O[C@H]1[C@H](O)C=C[C@H]4[C@@H](C2)N(C)CC[C@@]341", "assay": "potentiometric titration", "test system": "methanol/water, extrapolated to water", "measurement": "log K", "result": 8.37}
{"SMILES": "CC(C)[C@H]1NC(=O)C[C@H]2/C=C/CCSSC[C@@H](NC1=O)C(=O)N[C@H](Cc1cccc3ccccc13)C(=O)NCC(=O)O2", "tested on": "ALK (Homo sapiens, UniProt Q9UM73, L1196M)", "assay": "enzyme activity, inhibitor", "conditions": "10 µM", "measurement": "inhibition", "result": "5%"}
{"SMILES": "Oc1ccc2c3c1O[C@H]1[C@@H](O)CC[C@H]4[C@@H](C2)N(CC2CCC2)CC[C@@]341", "conditions": "phenolate protonated", "measurement": "log k amino protonation", "result": 9.43}
{"SMILES": "CS(C)(=O)=Nc1ccc(-c2ccc(-c3nc4cc(O[C@@H]5CO[C@H]6[C@@H]5OC[C@H]6O)[nH]c4cc3F)cc2)cc1", "tested on": "CAMK2A (Homo sapiens, UniProt Q9UQM7)", "assay": "enzyme activity, inhibitor", "conditions": "10 µM", "measurement": "inhibition", "result": "-11%"}
